# Measured values from different studies.
Compound,technique,refers to,medium,temperature,notes,pKa
Cc1ccc2cc(Cl)cc(O)c2n1,capillary electrophoresis,,,,,8.9
O=C(O)CNC(=O)c1nc(Cl)c2ccccc2c1O,,,,,second acidic,6.5
O=C(O)C12CC(c3ccccc3)(C1)C2(F)F,potentiometric titration,,methanol-water 1:4 with 150 mM NaCl,25 °C,carboxylic acid group,3.9
FC(F)(F)C1(c2ccc(CN3CCN(C(c4ccccc4)c4ccc(Cl)cc4)CC3)cc2)CCC1 (stereo not shown),acid-base titration,,,,,3.52
NS(=O)(=O)c1c(F)c(F)c(N2CCOCC2)c(F)c1F,,,,,sulfonamide group,8.61
N[C@@H](CC(=O)O)C(=O)OC(C(=O)O)c1ccc(Br)cc1[N+](=O)[O-] (mixture of isomers),pH-rate profile of hydrolysis,benzylic carboxylic acid,"aqueous buffer, 12.5% DMSO-d6",,,< 4.2
Cc1ccc2c(C)ccc(O)c2n1,capillary electrophoresis,,,,,10.5
NS(=O)(=O)c1c(F)c(F)c(S(=O)(=O)CCc2ccccc2)c(NC2CCCCCCCCCCC2)c1F,,,,,sulfonamide group,7.87
NCC1CC2(CCC2)C1,potentiometric titration,,methanol-water,25 °C,amine hydrochloride,10.6
CC(C)(C)N1Cc2cccc(n2)CN(C(C)(C)C)Cc2cc(-c3nc4ccccc4s3)cc(n2)C1,,,0.1 M NaCl,25 °C,H2L2+ deprotonation,7.44
Cc1cc(=O)[nH]c(SCC(=O)c2ccc(S(N)(=O)=O)c(Cl)c2)n1,,,,,sulfonamide group,8.9
O=C(O)C1CC2(CC2)CO1 (stereo not shown),potentiometric titration,,methanol-water,25 °C,carboxylic acid,3.5
O=C(NC[C@@H](Cc1ccc(F)cc1)N1CCC(O)(C(F)(F)F)CC1)C1(c2ccc(Cl)cc2)CCCC1,UV-metric,,,,,5.89
Cc1cc(O)c2nc(C)ccc2c1,capillary electrophoresis,,,,,10
c1cc2nc(c1)CSCc1cccc(n1)CSC2,,,0.1 M NaCl,25 °C,H2L2+ deprotonation,4.33
Cc1ccc2cc(C#N)cc(O)c2n1,capillary electrophoresis,,,,,8.6
NS(=O)(=O)c1c(F)c(F)c(SCCc2ccccc2)c(F)c1N1CCOCC1,,,,,sulfonamide group,8.67
Cc1ccc2cc(Br)cc(O)c2n1,capillary electrophoresis,,,,,9.1
O=C(O)C1CC2(CO1)CC(F)(F)C2 (stereo not shown),potentiometric titration,,methanol-water,25 °C,carboxylic acid,3.4
Cc1ccc2ccc(Br)c(O)c2n1,capillary electrophoresis,,,,,8.6
O=C(O)C1CC2(CC2)C1,potentiometric titration,,methanol-water,25 °C,carboxylic acid,4.6
NS(=O)(=O)c1c(F)c(F)c(S(=O)(=O)CCc2ccccc2)c(N2CCOCC2)c1F,,,,,sulfonamide group,7.87
NCC1CC2(C1)CC(F)(F)C2,potentiometric titration,,methanol-water,25 °C,amine hydrochloride,10.3
O=C(NC[C@@H](Cc1ccccc1)N1CCC(O)(C(F)(F)F)CC1)C1(c2ccc(Cl)cc2)CCCC1,UV-metric,,,,,6.09
Cc1ccc2cc(F)cc(O)c2n1,capillary electrophoresis,,,,,8.9
NS(=O)(=O)c1cc(-c2ccccc2)cc(-c2ccccc2)c1,,,,,sulfonamide group,10.4
c1cc2nc(c1)CSCc1cc(-c3nc4ccccc4s3)cc(n1)CSC2,,,0.1 M NaCl,25 °C,HL+ deprotonation,6.49
COC(=O)CCCNC(=O)c1cc(S(N)(=O)=O)c(Cl)cc1NC1CCCCC1,,,,,sulfonamide group,9.5
O=C(O)C1CC2(C1)CC(F)(F)C2,potentiometric titration,,methanol-water,25 °C,carboxylic acid,4.3
Cc1ccc2cc([N+](=O)[O-])cc(O)c2n1,capillary electrophoresis,,,,,8.3
NS(=O)(=O)c1ccc(C(=O)Cn2cnc3ccccc32)cc1,,,,,sulfonamide group,8.84

# Repeated from above:
Compound,technique,refers to,medium,temperature,notes,pKa
O=C(NC[C@@H](Cc1ccc(F)cc1)N1CCC(O)(C(F)(F)F)CC1)C1(c2ccc(Cl)cc2)CCCC1,UV-metric,,,,,5.89
Cc1ccc2cc([N+](=O)[O-])cc(O)c2n1,capillary electrophoresis,,,,,8.3
N[C@@H](CC(=O)O)C(=O)OC(C(=O)O)c1ccc(Br)cc1[N+](=O)[O-] (mixture of isomers),pH-rate profile of hydrolysis,benzylic carboxylic acid,"aqueous buffer, 12.5% DMSO-d6",,,< 4.2
